# Measurements from different studies.
# Parts stem from different laboratories: compare values within a part only. Several values in a cell are separate wells, animals, samples, runs or records. pIC50: −log10 of the molar value.
# Sequence of UniProt Q15349 (whole entry, looked up): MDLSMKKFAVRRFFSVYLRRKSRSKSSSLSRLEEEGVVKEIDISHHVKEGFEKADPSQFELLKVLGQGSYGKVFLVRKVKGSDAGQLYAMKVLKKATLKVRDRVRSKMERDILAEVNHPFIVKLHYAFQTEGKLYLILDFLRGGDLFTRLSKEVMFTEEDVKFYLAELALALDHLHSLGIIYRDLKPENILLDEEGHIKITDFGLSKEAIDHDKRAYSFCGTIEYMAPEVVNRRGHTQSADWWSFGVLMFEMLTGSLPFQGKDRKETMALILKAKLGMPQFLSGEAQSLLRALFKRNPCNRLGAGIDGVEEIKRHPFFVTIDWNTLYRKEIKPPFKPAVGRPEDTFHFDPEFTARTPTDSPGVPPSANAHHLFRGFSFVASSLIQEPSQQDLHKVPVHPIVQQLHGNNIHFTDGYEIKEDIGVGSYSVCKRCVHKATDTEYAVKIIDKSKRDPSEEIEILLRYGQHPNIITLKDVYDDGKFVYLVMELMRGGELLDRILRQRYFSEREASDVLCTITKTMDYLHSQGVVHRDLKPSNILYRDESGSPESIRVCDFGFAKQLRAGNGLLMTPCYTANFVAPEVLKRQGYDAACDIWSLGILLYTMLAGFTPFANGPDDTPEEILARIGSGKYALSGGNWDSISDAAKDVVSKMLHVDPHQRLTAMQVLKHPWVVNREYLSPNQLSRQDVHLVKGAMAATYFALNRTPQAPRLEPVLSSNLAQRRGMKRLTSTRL
# Sequence of UniProt Q07002 (whole entry, looked up): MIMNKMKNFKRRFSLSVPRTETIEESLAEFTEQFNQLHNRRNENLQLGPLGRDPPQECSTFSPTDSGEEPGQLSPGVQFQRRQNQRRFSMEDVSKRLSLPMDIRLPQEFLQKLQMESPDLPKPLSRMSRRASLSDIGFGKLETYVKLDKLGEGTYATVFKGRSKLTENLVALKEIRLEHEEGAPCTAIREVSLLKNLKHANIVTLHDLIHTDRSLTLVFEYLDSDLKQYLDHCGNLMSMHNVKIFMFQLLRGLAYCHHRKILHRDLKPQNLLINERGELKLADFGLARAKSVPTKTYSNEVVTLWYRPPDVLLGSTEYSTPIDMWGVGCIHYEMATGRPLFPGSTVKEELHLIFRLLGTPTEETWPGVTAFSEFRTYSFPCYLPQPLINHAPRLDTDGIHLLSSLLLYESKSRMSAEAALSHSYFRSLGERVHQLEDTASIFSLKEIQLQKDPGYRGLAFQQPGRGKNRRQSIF
# Sequence of UniProt O96017 (whole entry, looked up): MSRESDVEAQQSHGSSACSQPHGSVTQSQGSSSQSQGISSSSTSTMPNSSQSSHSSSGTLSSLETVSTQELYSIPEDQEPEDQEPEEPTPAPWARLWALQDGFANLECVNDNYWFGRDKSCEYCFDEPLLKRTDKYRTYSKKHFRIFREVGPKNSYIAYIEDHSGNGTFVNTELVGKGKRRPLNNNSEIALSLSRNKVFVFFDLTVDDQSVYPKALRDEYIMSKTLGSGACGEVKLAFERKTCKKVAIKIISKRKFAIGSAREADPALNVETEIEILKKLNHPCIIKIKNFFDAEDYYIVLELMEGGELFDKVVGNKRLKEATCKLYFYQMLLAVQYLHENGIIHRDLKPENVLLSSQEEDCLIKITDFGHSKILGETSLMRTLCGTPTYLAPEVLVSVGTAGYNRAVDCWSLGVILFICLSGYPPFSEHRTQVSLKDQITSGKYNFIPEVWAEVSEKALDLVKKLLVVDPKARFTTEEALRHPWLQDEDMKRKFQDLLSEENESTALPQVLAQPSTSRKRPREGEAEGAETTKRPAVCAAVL
# Sequence of UniProt Q5S007 (whole entry, looked up): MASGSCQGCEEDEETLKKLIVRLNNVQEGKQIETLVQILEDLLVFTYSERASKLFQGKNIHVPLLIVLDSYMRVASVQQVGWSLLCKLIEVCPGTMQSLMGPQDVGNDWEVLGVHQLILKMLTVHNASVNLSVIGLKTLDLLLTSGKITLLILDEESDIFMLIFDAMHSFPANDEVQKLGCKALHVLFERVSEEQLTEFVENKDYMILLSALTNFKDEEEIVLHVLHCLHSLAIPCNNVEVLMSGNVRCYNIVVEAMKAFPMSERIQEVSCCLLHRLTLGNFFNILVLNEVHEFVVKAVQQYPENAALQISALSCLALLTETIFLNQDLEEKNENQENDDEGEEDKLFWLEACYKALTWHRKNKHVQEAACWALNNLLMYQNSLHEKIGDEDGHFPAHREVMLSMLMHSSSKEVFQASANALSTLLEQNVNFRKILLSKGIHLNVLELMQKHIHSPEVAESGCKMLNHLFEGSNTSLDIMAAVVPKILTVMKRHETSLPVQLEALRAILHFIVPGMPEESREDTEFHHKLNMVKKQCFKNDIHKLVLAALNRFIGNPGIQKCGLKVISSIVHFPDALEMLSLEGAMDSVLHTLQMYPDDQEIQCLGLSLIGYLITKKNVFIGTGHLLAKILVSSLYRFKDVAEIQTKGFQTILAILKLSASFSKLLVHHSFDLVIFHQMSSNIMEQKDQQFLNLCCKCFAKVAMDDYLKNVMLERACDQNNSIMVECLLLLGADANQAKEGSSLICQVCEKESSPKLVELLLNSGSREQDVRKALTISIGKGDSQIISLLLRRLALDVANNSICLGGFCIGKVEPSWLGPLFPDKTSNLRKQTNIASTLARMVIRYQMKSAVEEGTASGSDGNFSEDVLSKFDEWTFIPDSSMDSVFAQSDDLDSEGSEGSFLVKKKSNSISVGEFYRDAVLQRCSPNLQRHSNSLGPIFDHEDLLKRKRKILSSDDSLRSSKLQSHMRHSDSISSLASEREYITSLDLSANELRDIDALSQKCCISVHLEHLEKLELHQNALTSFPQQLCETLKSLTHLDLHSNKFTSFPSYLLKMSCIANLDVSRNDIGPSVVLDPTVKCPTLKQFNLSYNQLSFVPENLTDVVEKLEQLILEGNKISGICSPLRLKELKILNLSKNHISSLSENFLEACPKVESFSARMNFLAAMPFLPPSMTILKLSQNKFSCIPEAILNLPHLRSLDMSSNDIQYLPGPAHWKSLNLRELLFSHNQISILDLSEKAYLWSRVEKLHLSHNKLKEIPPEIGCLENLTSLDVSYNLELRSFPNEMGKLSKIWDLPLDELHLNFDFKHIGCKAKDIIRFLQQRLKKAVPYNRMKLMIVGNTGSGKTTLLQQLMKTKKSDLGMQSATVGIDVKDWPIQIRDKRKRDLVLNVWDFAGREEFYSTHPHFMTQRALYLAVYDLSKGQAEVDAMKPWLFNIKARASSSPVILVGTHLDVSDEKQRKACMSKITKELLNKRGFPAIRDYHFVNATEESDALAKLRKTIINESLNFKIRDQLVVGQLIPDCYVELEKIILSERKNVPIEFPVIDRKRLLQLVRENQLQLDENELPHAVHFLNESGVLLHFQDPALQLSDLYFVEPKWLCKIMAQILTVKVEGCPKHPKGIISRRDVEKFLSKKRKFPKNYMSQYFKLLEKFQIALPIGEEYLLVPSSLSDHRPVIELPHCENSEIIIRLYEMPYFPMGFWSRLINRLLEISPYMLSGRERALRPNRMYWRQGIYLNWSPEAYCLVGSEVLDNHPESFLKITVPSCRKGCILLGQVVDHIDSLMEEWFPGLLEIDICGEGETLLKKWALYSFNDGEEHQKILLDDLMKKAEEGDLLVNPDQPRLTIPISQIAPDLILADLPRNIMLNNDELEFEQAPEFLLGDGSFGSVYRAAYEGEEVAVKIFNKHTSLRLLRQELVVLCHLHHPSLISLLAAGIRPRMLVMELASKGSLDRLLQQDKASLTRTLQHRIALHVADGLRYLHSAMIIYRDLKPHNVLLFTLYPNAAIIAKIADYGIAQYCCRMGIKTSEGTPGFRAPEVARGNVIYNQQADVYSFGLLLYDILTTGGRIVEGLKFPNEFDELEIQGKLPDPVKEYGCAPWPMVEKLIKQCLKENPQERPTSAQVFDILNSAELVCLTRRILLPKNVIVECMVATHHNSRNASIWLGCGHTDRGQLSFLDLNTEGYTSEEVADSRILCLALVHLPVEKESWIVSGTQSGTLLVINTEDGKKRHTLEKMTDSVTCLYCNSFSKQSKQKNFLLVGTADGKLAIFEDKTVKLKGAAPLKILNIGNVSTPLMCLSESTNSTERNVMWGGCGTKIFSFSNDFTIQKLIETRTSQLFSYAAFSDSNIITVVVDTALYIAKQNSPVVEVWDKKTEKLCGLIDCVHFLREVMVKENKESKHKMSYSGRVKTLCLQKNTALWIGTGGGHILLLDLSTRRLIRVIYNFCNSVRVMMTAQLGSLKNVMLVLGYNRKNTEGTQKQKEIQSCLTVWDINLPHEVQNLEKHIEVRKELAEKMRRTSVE
# Sequence of UniProt Q8N5S9 (whole entry, looked up): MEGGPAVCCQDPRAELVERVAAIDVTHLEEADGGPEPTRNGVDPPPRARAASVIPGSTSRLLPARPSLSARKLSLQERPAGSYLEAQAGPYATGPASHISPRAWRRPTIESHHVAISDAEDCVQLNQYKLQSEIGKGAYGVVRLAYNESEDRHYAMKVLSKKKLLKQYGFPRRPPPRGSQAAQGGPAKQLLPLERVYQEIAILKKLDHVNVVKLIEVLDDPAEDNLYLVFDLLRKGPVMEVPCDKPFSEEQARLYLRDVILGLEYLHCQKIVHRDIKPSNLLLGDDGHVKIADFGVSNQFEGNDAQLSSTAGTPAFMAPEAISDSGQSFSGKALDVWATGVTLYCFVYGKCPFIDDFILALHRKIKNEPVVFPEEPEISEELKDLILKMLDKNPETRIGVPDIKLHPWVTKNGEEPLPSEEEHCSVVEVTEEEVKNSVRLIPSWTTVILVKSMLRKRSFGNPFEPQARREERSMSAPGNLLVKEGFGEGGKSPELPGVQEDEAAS

# Sample 1
# Structure (SMILES): COc1cc(C(=O)OCCCN2CCCN(CCCOC(=O)c3cc(OC)c(OC)c(OCc4ccc([N+](=O)[O-])cc4)c3)CC2)cc(OC)c1OC
test,test system,conditions,paw withdrawal frequency
von Frey test,"mouse, STZ diabetic neuropathy","subcutaneous, 30 mg/kg, second of three doses, 3 h",0.23 fraction of stimuli and 0.51 fraction of stimuli and 0.09 fraction of stimuli and 0.1 fraction of stimuli and 0.36 fraction of stimuli and 0.98 fraction of stimuli
"von Frey, 0.4 g filament","mouse, CFA inflammatory pain","intraplantar, baseline before CFA",10% and 20% and 0%
cold mechanical pain,"mouse, spared nerve injury model","intrathecal, 100 nmol, before second of 3 doses",50% and 80% and 60%
von Frey test,"mouse, STZ diabetic neuropathy","subcutaneous, 30 mg/kg, second of three doses, 24 h",0.29 fraction of stimuli and 0.13 fraction of stimuli and 0.23 fraction of stimuli and 0.32 fraction of stimuli and 0.06 fraction of stimuli
"von Frey, 0.4 g filament","mouse, CFA inflammatory pain","intravenous, dose not given, 1 h post-dose, third injection, day 5",20% and 40% and 30%
"von Frey, 0.4 g filament","mouse, CFA inflammatory pain","intraplantar, after CFA, before dosing",90% and 100% and 80%

# Sample 2
# Structure (SMILES): O=C(Nc1ccccc1)Nc1cccc(Oc2ccc3nccn3n2)c1
# Read-out: binding
# Tested at: 1 µM
target,technique,remaining binding [%]
"Serine/threonine-protein kinase Chk2 (CHEK2, Homo sapiens, UniProt O96017)",,99
"Calcium/calmodulin-dependent protein kinase kinase 1 (CAMKK1, Homo sapiens, UniProt Q8N5S9)",,100
"Serine/threonine-protein kinase 38-like (STK38L, Homo sapiens, UniProt Q9Y2H1)",,100
"Serine/threonine-protein kinase 32A (STK32A, Homo sapiens, UniProt Q8WU08)",,100
"Leucine-rich repeat serine/threonine-protein kinase 2 (LRRK2, Homo sapiens, UniProt Q5S007)",,100
"Cyclin-dependent kinase 18 (CDK18, Homo sapiens, UniProt Q07002)",,100
"Ribosomal protein S6 kinase alpha-2, C-terminal kinase domain (RPS6KA2, Homo sapiens, UniProt Q15349)",competition with immobilised ligand,86
"Serine/threonine-protein kinase MRCK beta (CDC42BPB, Homo sapiens, UniProt Q9Y5S2)",competition with immobilised ligand,96

# Further values, each from its own experiment
Compound,target or system,test,test system,conditions,scale,measurement,value
CN1CCC[C@H]1COc1nc2c(c(N3CCN(C(=O)C(F)(F)F)[C@@H](CC#N)C3)n1)CCN(c1cccc3cccc(Cl)c13)C2,HEK293 RAS-independent,"cell growth, CellTiter-Glo",,,,pIC50,5.57
Cn1cc(-c2cccc(CN3CCC4(CC3)COc3c4ccc4c3CN([C@H]3CCC(=O)NC3=O)C4=O)c2)cn1,,,rats,"intravenous, 1.02 mg/kg",,steady-state volume of distribution,2.96 L/kg
C#Cc1cccc2cc(O)cc(-c3ncc4c(N5CC6CCC(C5)N6)nc(OCC56CCCN5CCC6)nc4c3F)c12,HEK293,CellTiter-Glo,,4.57 nM,baseline: vehicle,viability,101% and 98.3% and 104%
CN1CCC[C@H]1COc1nc2c(c(N3CCN(C(=O)C4CC4)[C@@H](CC#N)C3)n1)CCN(c1cccc3cccc(Cl)c13)C2,HEK293 RAS-independent,"cell growth, CellTiter-Glo",,,,pIC50,5.42

# Some of these lines once more (sample 1):
test,test system,conditions,paw withdrawal frequency
von Frey test,"mouse, STZ diabetic neuropathy","subcutaneous, 30 mg/kg, second of three doses, 3 h",0.23 fraction of stimuli and 0.51 fraction of stimuli and 0.09 fraction of stimuli and 0.1 fraction of stimuli and 0.36 fraction of stimuli and 0.98 fraction of stimuli
"von Frey, 0.4 g filament","mouse, CFA inflammatory pain","intravenous, dose not given, 1 h post-dose, third injection, day 5",20% and 40% and 30%
